Results of several laboratories.
Numbered parts are unrelated; each lists some results of a single study. Values joined by “and” are separate records of one study, mostly repeats; a detail may differ.
UniProt P42336, sequence (whole entry, unmodified, looked up): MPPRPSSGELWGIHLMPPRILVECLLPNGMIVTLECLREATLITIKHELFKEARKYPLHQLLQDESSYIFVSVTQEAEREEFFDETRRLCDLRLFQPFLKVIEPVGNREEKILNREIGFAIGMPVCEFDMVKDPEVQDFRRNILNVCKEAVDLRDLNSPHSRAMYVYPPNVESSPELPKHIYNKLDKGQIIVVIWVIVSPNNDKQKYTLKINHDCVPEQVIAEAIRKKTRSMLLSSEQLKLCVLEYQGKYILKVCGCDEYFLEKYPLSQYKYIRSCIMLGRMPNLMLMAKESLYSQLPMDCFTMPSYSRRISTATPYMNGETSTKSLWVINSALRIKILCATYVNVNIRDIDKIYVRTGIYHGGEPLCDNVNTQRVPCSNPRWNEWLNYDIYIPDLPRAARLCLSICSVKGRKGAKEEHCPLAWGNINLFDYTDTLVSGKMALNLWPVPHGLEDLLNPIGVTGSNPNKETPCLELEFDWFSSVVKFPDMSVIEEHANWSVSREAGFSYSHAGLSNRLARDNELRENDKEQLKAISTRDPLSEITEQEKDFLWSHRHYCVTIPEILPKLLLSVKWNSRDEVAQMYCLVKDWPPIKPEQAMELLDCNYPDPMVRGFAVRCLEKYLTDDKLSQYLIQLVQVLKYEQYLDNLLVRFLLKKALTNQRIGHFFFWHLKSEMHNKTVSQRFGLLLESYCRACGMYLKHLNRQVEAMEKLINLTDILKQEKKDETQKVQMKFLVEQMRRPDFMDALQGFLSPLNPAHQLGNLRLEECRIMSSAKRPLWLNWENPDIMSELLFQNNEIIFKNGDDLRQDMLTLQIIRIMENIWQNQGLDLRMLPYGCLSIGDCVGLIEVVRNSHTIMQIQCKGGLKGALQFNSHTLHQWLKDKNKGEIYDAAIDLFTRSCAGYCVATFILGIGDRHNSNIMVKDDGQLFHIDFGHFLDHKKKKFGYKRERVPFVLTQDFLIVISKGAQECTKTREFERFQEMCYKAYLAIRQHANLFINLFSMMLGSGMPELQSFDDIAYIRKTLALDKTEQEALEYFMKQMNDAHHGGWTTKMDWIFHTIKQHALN
UniProt Q15139, sequence (whole entry, looked up): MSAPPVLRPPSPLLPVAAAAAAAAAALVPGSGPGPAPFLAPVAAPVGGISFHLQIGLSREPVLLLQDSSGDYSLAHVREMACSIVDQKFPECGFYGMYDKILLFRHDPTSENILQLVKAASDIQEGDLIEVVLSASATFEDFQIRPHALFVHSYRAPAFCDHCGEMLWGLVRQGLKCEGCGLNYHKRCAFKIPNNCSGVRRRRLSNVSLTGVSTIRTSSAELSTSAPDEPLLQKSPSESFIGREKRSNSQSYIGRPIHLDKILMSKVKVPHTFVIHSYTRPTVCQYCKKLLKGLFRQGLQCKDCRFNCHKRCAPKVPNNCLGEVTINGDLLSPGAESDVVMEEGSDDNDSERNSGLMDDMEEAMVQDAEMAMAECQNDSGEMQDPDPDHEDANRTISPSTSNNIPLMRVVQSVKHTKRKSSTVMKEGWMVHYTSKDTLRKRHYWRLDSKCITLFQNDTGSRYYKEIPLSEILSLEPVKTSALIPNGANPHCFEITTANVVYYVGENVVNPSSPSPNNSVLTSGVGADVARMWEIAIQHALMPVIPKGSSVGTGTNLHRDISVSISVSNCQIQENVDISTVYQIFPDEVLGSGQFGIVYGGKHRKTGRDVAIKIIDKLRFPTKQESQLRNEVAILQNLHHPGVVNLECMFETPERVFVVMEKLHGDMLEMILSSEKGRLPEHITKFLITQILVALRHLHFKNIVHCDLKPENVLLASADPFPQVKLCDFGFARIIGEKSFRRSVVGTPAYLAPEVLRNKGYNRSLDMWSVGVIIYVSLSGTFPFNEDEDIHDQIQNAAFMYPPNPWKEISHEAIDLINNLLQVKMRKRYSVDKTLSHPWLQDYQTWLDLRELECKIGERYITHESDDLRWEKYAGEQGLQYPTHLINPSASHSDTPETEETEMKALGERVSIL
UniProt Q16816, sequence (whole entry, looked up): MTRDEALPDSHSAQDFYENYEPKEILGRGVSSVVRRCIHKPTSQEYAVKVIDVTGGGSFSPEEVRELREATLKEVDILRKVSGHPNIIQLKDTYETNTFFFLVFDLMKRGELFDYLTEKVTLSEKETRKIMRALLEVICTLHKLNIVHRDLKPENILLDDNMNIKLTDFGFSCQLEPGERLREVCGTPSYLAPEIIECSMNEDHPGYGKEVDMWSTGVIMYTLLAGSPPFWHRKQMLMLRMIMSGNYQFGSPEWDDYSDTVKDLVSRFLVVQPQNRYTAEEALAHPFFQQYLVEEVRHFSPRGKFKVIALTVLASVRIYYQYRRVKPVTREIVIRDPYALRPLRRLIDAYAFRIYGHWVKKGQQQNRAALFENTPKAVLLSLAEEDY
UniProt Q9H093, sequence (whole entry, looked up): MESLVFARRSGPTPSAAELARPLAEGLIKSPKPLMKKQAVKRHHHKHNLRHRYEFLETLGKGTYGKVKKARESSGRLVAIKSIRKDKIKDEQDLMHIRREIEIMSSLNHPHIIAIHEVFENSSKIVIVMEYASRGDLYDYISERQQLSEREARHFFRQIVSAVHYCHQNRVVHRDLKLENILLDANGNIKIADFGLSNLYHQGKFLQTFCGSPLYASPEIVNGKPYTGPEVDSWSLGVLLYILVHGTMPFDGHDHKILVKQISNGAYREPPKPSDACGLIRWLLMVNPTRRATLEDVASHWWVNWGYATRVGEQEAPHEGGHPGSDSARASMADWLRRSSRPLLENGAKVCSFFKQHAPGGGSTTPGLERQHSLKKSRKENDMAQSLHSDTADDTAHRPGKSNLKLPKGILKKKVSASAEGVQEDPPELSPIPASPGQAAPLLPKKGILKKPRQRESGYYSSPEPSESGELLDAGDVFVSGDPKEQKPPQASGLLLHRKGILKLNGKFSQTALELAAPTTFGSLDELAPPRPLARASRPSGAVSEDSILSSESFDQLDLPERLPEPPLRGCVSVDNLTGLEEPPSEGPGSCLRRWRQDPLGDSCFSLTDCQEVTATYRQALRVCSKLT

Set 1
Target: Eukaryotic initiation factor 4A-I (EIF4A1, Homo sapiens, UniProt P60842)
UniProt P60842, sequence (whole entry, looked up): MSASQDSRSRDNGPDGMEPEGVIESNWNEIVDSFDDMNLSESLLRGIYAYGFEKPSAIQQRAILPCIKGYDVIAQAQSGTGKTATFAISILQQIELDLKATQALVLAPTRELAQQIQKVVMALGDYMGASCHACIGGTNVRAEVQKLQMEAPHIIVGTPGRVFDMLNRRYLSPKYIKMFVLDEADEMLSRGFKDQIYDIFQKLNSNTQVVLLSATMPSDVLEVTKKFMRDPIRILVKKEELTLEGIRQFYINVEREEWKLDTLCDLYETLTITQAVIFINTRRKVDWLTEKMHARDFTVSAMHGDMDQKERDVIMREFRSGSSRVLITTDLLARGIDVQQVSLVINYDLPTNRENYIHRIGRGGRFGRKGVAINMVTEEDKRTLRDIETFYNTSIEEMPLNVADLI
Read-out: RNA clamping
Technique: fluorescence polarization
Concentration: concentration not given
With: FAM-labelled poly r(AG)8 RNA
Direction: higher = more clamping
`COC(=O)C1=C(c2ccccc2)[C@]2(c3ccc(OC)cc3)Oc3cc(OC)cc(OC)c3[C@]2(O)C1=O` — result for “fluorescence polarization change”: 14.2 mP.
Under “fluorescence polarization change”, `COc1ccc([C@@]23Oc4cc(OC)c(Cl)c(OC)c4[C@]2(O)c2nc4n(c(=O)c2[C@H]3c2ccccc2)CCC4)cc1` is recorded as 24.6 mP.
For `C#CCCC1(CCOc2cc(OC)c3c(c2)O[C@@]2(c4ccc(OC)cc4)[C@H](c4ccccc4)[C@@H](C(=O)c4ccco4)[C@@H](O)[C@@]32O)N=N1`, “fluorescence polarization change” read 1.4 mP.
`COc1ccc([C@@]23Oc4cc(OC)cc(OC)c4[C@]2(O)c2nc(-c4ccccc4)[nH]c(=O)c2/C3=C\Cc2ccccc2)cc1` — result for “fluorescence polarization change”: -11.2 mP.
`COc1ccc([C@@]23Oc4cc(OC)cc(OC)c4[C@]2(O)c2nc(-c4cccc(OC)c4)[nH]c(=O)c2[C@H]3c2ccccc2)cc1`: “fluorescence polarization change” 13.9 mP and 31.5 mP.
For `COc1ccc([C@@]23Oc4cc(OC)cc(OC)c4[C@]2(O)[C@@H](O)[C@H](C(=O)c2ccco2)[C@H]3c2ccccc2)cc1`, “fluorescence polarization change” read 24.4 mP.
For `COC(=O)[C@H]1C(=O)[C@@]2(NC(C)C)c3c(OC)cc(OC)cc3O[C@@]2(c2ccc(OC)cc2)[C@@H]1c1ccccc1`, “fluorescence polarization change” read 8.4 mP.
For `COc1ccc([C@@]23Oc4cc(OC)cc(OC)c4[C@]2(O)[C@H](O)[C@H](C(=O)NOCc2ccccc2)[C@H]3c2ccccc2)cc1`, “fluorescence polarization change” read 10.4 mP.
For `COc1ccc([C@]23Oc4cc(OC)cc(OC)c4[C@](O)([C@H](C(=O)NCCCC(OC)OC)[C@H]2c2ccccc2)[C@H]3O)cc1`, “fluorescence polarization change” read 6.5 mP.
For `COC(=O)[C@H]1[C@@H](O)[C@@]2(O)c3c(OC)cc(OS(=O)(=O)c4ccc(C)cc4)cc3O[C@@]2(c2ccc(OC)cc2)[C@@H]1c1ccccc1`, “fluorescence polarization change” read 23 mP.
`COc1ccc([C@@]23Oc4cc(OC)cc(OC)c4[C@]2(O)c2nc(-c4ccc(C)cc4)[nH]c(=O)c2[C@H]3c2ccccc2)cc1`: “fluorescence polarization change” -0.3 mP and 28.8 mP.
Under “fluorescence polarization change”, `COC(=O)[C@H]1C(=O)[C@@]2(NCC3CCOCC3)c3c(OC)cc(OC)cc3O[C@@]2(c2ccc(OC)cc2)[C@@H]1c1ccccc1` is recorded as -12.1 mP.
For `C#CCOc1cc(OC)c2c(c1)O[C@@]1(c3ccc(OC)cc3)[C@H](c3ccccc3)c3c(nc(-c4ccccc4)[nH]c3=O)[C@@]21O`, “fluorescence polarization change” read 7.9 mP.
Under “fluorescence polarization change”, `COC(=O)[C@@H]1[C@@H](c2ccccc2)[C@]2(c3ccc(OC)cc3)Oc3cc(OC)cc(OC)c3[C@@]23NC(c2cccnc2)=N[C@@]13O` is recorded as 33.4 mP.
`COc1ccc([C@@]23Oc4cc(OC)cc(OC)c4[C@]2(O)c2nc(-c4ccccc4)nc(OC)c2[C@H]3c2ccccc2)cc1`: “fluorescence polarization change” -7.1 mP.

Set 2
Target: Fibroblast growth factor receptor 4 (FGFR4, Homo sapiens, UniProt P22455)
UniProt P22455, sequence (whole entry, looked up): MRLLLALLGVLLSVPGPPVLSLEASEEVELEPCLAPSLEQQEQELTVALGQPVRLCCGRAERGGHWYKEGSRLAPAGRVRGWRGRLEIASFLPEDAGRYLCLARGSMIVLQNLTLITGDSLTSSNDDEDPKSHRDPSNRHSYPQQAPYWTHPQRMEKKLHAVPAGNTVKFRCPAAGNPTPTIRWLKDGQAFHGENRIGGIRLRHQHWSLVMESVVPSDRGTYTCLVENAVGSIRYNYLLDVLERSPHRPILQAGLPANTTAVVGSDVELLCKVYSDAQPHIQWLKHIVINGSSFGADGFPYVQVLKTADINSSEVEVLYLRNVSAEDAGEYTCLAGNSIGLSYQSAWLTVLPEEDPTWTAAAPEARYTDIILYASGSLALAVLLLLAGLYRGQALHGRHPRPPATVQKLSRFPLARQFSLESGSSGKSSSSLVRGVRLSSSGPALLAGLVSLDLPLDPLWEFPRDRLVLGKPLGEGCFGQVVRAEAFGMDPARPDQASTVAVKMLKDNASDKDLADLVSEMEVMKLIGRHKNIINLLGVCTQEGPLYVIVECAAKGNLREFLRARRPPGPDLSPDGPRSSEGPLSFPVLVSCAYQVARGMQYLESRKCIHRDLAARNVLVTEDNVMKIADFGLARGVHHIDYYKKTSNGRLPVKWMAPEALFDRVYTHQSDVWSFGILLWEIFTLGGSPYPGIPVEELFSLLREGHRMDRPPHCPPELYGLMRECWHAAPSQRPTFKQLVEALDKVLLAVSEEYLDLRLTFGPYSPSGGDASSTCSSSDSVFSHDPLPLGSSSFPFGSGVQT
Read-out: enzyme activity
Mode: inhibitor
Concentration: 0.5 µM
Baseline: control
`COc1cc2ncnc(Nc3cccc(Cl)c3)c2cc1OC` has a remaining activity of 78.7%.
With `N#C/C(=C\c1ccc(O)c(O)c1)C(=O)NCc1ccccc1` the remaining activity was 84.2%.
With `CN(C)C[C@H]1CCn2c(c(C3=C(c4cn(C)c5ccccc45)C(=O)NC3=O)c3ccccc32)C1` the remaining activity was 89.6%.
The remaining activity of `O=C(Nc1cccc(Nc2nccc(Nc3cccc(C(F)(F)F)c3)n2)c1)C1CC1` is reported as 101%.
`CCN(CC)CCNC(=O)c1c(C)[nH]c(/C=C2\C(=O)Nc3ccc(F)cc32)c1C` has a remaining activity of 92.5%.
`O=C(NC(NC(=S)Nc1ccc(F)c([N+](=O)[O-])c1)C(Cl)(Cl)Cl)C(c1ccccc1)c1ccccc1` (stereo not shown) has a remaining activity of 100%.
For `c1ccc(-c2cnc(Nc3ccc(OCCN4CCCC4)cc3)s2)cc1`, the remaining activity was 95.6%.
The remaining activity of `COc1cc2ncnc(Nc3ccc(O)c(Br)c3)c2cc1OC` is reported as 103%.
`COc1cc2c(cc1OC)-c1[nH]nc(Nc3cccc(F)c3)c1C2` has a remaining activity of 91.6%.
The remaining activity of `Cc1nc2cc3nc(-c4cccs4)cnc3cc2n1C` is reported as 96.3%.
For `Nc1cccc(-c2cc3c(Oc4cccc(O)c4)ncnc3[nH]2)c1`, the remaining activity was 45.1%.
With `CCN(CC)C(=O)c1ccc(Nc2nc(OCC3CCCCC3)c3[nH]cnc3n2)cc1` the remaining activity was 94.4%.
For `Ic1cccc(CSc2nnc(-c3ccncc3)o2)c1`, the remaining activity was 97.2%.
For `N#Cc1c(NC(=O)c2cccc3ccccc23)sc2c1CCCC2`, the remaining activity was 109%.
The remaining activity of `C[C@@H]1CCN(C(=O)CC#N)C[C@@H]1N(C)c1ncnc2[nH]ccc12` is reported as 94.3%.
`Cc1cc2ncc(-c3ccccc3)nc2cc1C` gave a remaining activity of 77.2%.
With `c1ccc(-c2[nH]ncc2-c2ccnc3ccccc23)nc1` the remaining activity was 80.6%.
For `O=C1c2ccccc2-c2n[nH]c3cccc1c23`, the remaining activity was 99.6%.
For `CCOc1nc(NC(=O)Cc2cc(OC)ccc2OC)cc(N)c1C#N`, the remaining activity was 109%.
For `Cc1cn(-c2cc(NC(=O)c3ccc(C)c(Nc4nccc(-c5cccnc5)n4)c3)cc(C(F)(F)F)c2)cn1`, the remaining activity was 99.4%.
`Cn1nc2c3c(cccc31)C(=O)c1ccccc1-2` has a remaining activity of 108%.
The remaining activity of `O=C1C(Cl)=C(N2C(=O)CCC2=O)C(=O)c2ccccc21` is reported as 105%.
`CCN(CC)CCNC(=O)c1c(C)[nH]c(/C=C2\C(=O)Nc3ccc(Cl)cc32)c1C` has a remaining activity of 70.5%.
The remaining activity of `O=c1cc(-c2cccc3c2Sc2ccccc2S3)oc(N2CCOCC2)c1` is reported as 100%.

Set 3
Compound: CCOC(=O)c1cc2cc(-c3cc(C(=O)NCc4ccc(C(=O)O)cc4)nn3C)ccc2[nH]1
Concentration: 0.1 µM
It gave 68% for remaining binding (ACVRL1 (Homo sapiens, UniProt P37023); cell-free assay, competition with immobilised ligand).
It gave 85% for remaining binding (NUAK2 (Homo sapiens, UniProt Q9H093); cell-free assay, competition with immobilised ligand).
The remaining binding was 93% (CDC42BPG (Homo sapiens, UniProt Q6DT37); competition binding).
PAK6 (Homo sapiens, UniProt Q9NQU5); cell-free assay, competition with immobilised ligand — remaining binding: 99%.
It gave 98% for remaining binding (FLT3 (Homo sapiens, UniProt P36888, ITD); cell-free assay, competition with immobilised ligand).
It gave 89% for remaining binding (MYLK3 (Homo sapiens, UniProt Q32MK0); cell-free assay, competition with immobilised ligand).
HCK (Homo sapiens, UniProt P08631); cell-free assay, competition with immobilised ligand — remaining binding: 100%.
The remaining binding was 100% (PIP5K1C (Homo sapiens, UniProt O60331); cell-free assay, competition with immobilised ligand).
For EPHA6 (Homo sapiens, UniProt Q9UF33); cell-free assay, competition with immobilised ligand: remaining binding read 94%.
The remaining binding was 88% (NEK3 (Homo sapiens, UniProt P51956); cell-free assay, competition with immobilised ligand).
KIT (Homo sapiens, UniProt P10721, V559D/V654A); cell-free assay, competition with immobilised ligand — remaining binding: 100%.
The remaining binding was 98% (MAP3K5 (Homo sapiens, UniProt Q99683); cell-free assay, competition with immobilised ligand).
It gave 90% for remaining binding (PLK1 (Homo sapiens, UniProt P53350); cell-free assay, competition with immobilised ligand).
SRPK1 (Homo sapiens, UniProt Q96SB4); cell-free assay, competition with immobilised ligand — remaining binding: 75%.
PRKD1 (Homo sapiens, UniProt Q15139); cell-free assay, competition with immobilised ligand — remaining binding: 75%.
It gave 97% for remaining binding (STK17A (Homo sapiens, UniProt Q9UEE5); cell-free assay, competition with immobilised ligand).
For PAK5 (Homo sapiens, UniProt Q9P286); cell-free assay, competition with immobilised ligand: remaining binding read 95%.
For STK36 (Homo sapiens, UniProt Q9NRP7); cell-free assay, competition with immobilised ligand: remaining binding read 97%.
The remaining binding was 100% (PHKG1 (Homo sapiens, UniProt Q16816); cell-free assay, competition with immobilised ligand).
For PRKAA1 (Homo sapiens, UniProt Q13131); cell-free assay, competition with immobilised ligand: remaining binding read 100%.
For LATS2 (Homo sapiens, UniProt Q9NRM7); cell-free assay, competition with immobilised ligand: remaining binding read 74%.
For PIK3CA (Homo sapiens, UniProt P42336, H1047L); cell-free assay, competition with immobilised ligand: remaining binding read 100%.
It gave 96% for remaining binding (MATK (Homo sapiens, UniProt P42679); cell-free assay, competition with immobilised ligand).
For COQ8B (Homo sapiens, UniProt Q96D53); cell-free assay, competition with immobilised ligand: remaining binding read 100%.
The remaining binding was 93% (PIK3CA (Homo sapiens, UniProt P42336, I800L); cell-free assay, competition with immobilised ligand).

Set 4
Target: Calcium/calmodulin-dependent protein kinase type II subunit alpha (CAMK2A, Homo sapiens, UniProt Q9UQM7)
UniProt Q9UQM7, sequence (whole entry, looked up): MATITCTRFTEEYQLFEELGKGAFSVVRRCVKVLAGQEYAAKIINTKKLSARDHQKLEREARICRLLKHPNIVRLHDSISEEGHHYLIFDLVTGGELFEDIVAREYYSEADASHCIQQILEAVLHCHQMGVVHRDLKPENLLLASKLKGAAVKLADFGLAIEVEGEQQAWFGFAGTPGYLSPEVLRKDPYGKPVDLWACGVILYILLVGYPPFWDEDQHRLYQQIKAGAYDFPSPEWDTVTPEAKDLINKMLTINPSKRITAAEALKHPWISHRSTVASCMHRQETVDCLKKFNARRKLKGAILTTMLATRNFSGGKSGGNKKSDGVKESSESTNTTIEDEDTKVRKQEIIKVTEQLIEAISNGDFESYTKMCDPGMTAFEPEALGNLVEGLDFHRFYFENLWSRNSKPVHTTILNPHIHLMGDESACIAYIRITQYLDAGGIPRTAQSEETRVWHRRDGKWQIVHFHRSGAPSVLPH
Read-out: enzyme activity
Mode: inhibitor
Concentration: 10 µM
For `COc1ccc([C@@H]2CC(=O)c3c(O)cc(O[C@@H]4O[C@H](CO[C@@H]5O[C@@H](C)[C@H](O)[C@@H](O)[C@H]5O)[C@@H](O)[C@H](O)[C@H]4O)cc3O2)cc1`, the inhibition was 27%.
With `CCc1cccc(C)c1O` the inhibition was 19%.
The inhibition of `CC(C)(O)CC[C@@H](O)[C@](C)(O)[C@H]1CC[C@@]2(O)C3=CC(=O)[C@@H]4C[C@@H](O)[C@@H](O)C[C@]4(C)[C@H]3CC[C@]12C` is reported as 18%.
With `O=C(O)CCc1cccc(O)c1` the inhibition was -33%.
`COc1cccc(O)c1-c1cc(=O)c2c(O)c(OC)c(OC)c(OC)c2o1` has an inhibition of -10%.
`CC(C)(C)c1cc(O)cc(C(C)(C)C)c1` gave an inhibition of -14%.
With `N=C(N)Nc1ccc(C(=O)Oc2ccc3cc(C(=N)N)ccc3c2)cc1` the inhibition was -19%.
For `CC(C)=CCC[C@](C)(O[C@@H]1O[C@H](CO)[C@@H](O)[C@H](O)[C@H]1O)[C@H]1CC[C@]2(C)[C@@H]1[C@H](O)C[C@@H]1[C@@]3(C)CC[C@H](O)C(C)(C)[C@@H]3[C@@H](O[C@@H]3O[C@H](CO)[C@@H](O)[C@H](O)[C@H]3O)C[C@]12C`, the inhibition was 12%.
`NCCCC[C@H](N[C@@H](CCc1ccccc1)C(=O)O)C(=O)N1CCC[C@H]1C(=O)O` has an inhibition of -2%.
With `CC(=O)NCCc1cnc[nH]1` the inhibition was -9%.
`Cc1[nH]c(=O)c(C#N)cc1-c1ccc2nccn2c1` gave an inhibition of -17%.
`CNNCc1ccc(C(=O)NC(C)C)cc1` gave an inhibition of 1%.
With `CC(=O)c1cc(O)ccc1O` the inhibition was -15%.
`O=C(O)CNC(=O)c1ccco1` gave an inhibition of 42%.
`NC(=O)c1nc(F)cnc1O` gave an inhibition of 5%.
